Measured values collected from several papers.
Parts stem from different laboratories: compare values within a part only. Changes are numbered by the printed parent chain.

Sample 1 — method: RNA Bind-n-Seq; molecule type: RNA; medium: in vitro; tested at: not given; baseline: input RNA pool; reading: higher = stronger binding
Target: RING finger protein unkempt homolog, zinc fingers 1-6, GST-SBP tag (UNK, Homo sapiens, UniProt Q9C0B0, residues 30-357)
Notes: RNA with constant flanks, human and mouse sites, ends assumed
Construct (chain): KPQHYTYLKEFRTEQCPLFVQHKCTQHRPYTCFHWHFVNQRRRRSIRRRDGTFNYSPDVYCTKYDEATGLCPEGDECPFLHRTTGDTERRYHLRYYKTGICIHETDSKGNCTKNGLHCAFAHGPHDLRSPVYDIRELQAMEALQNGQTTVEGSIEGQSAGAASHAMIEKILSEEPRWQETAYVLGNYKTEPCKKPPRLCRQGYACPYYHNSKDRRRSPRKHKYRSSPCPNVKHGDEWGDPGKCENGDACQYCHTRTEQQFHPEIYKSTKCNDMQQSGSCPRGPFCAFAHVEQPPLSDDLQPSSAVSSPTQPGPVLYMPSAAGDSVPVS
| Sequence | bound/input enrichment |
| --- | --- |
| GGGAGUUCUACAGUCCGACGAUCGUGACUAUAUAAAUAUCAAAACAUGUUCACUUUGUAGGACAAAAUUAUGUUGAAAAGUUCUAGCUUAAGUGUUGGCACUUUUAUGGGGGGGAAAUCAGUUUUAAAACUAAGACUUCCAUGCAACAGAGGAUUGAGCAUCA | 0.305 ratio |
| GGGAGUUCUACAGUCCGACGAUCGCUGUUAAGAUGCUCAGAAAUGCAAGAAAGAAGUCACUGUUUCAGUAAAAUCUCUAGUAAUGAUAAAAAAUUAAAUUAGUCUUCCCAAGCAUCAUGGAUCAUUUUGGACAAGAUUUUCUACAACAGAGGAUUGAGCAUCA | 5.36 ratio |
| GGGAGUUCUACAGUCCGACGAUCAAGGUCUUGGGCACUCGGAAGUUGAUGCAUGUAGCCUAUGAAGAGUUUGAAAAGGUCAUGGUGGCUUGCUUCGAAGUCUUCCAGACGUGGGACGACGAGUACGAGAAGCUCCAGGUGCUGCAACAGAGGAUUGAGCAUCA | 0.0904 ratio |
| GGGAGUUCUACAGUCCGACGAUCGAAGAUAAGCUGGAAUGUUCUGAAGAACUGGGUGAUCUCGUUAAAUCUGUGGACCCAACAUUAGCACUGAGUGUUUACCUCAGGGCCAAUGUACCUAAUAAAGUCAUCCAGUGCUUUGCACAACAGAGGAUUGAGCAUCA | 0.119 ratio |
| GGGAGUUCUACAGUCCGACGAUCCAACUCUUUGGGGAUGAUGAAACUGCUUUUGGUUACAAGGGUCUAAAGAUCCUGUUAUACUAUAUUGCUGGUAGCCUGUCAACAAUGUUCCGUGUUGAAUAUGCAUCUAAAGUUGAUGAGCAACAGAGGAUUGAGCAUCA | 0.149 ratio |
| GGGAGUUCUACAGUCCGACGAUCUUUAGACAAAGAGAAGGGCCUUUUUAUCCAACUUUAAGAUUACUUCAUAAAUAUCCUUUUAUCUUGCCACAUCAGCAGGUUGAUAAAGGAGCCAUCAAAUUUGUACUCAGUGGAGCAAAUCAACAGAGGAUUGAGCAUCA | 0.23 ratio |
| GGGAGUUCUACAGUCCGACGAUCUCCUUUCAGUUUUUAUUAAUCUACUGUAUCAAUAAAAUUCUGUAAUUUGAAUGAGUUUUUAAUAGUCUAGAAUGUUAUUGUGUAUAGAUAUUUCCUCUUGAACGUUAUGUUCAGAAAAUGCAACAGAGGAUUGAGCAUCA | 4.31 ratio |
| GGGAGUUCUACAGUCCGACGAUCUGUCUGUUACACAGCUUUGACAGAGCUUUCUUAGGAAACAUGAUUAAAAAAAAACACUCCCAACUUCAAAAAUGUAUCAGGUGAAGAGGCAUGGGCAGAAUUGUGUCUUUUCUGGUCUGACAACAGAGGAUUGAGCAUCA | 0.397 ratio |

Sample 2 — target: CCNB3, cyclin fold, Cln2 fusion (human); method: yeast growth competition, sequencing; medium: yeast; notes: weak parent motif; baseline: not given; reading: higher = stronger binding
Starting sequence: INSM1 docking peptide (human); PKAIRKLHFEDEV
| Substitution | normalised enrichment score |
| --- | --- |
| F9M | 0.038 |
| E12Y | 0.37 |
| E10W | 0.462 |
| I4Y | -0.0443 |
| R5N | -0.23 |
| R5S | 0.189 |
| R5G | -0.308 |

Sample 3 — method: RNA Bind-n-Seq; molecule type: RNA; medium: in vitro; tested at: 365 nM; baseline: no-protein control; reading: higher = stronger binding
Target: RNA binding protein fox-1 homolog 2, RRM domain, GST-SBP tag (RBFOX2, Homo sapiens, UniProt O43251-10, residues 100-194)
Notes: natural RNA segment, single round, ends assumed
Target sequence (chain): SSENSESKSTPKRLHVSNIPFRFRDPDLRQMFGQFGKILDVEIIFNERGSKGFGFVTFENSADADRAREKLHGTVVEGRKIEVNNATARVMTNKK
| Sequence | RBNS enrichment (R) |
| --- | --- |
| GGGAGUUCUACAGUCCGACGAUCCCACAUUACCAUCAAGCCCUUGACAUUCGCAGCACUUGCUGUGGGGAAAGCAGGCCAAGAACUUGUCAUGUGCCCCAUCCACUUCGAGGCUGGAUGGGAUGGGGCUCCAAUGGAAUUCUCGGGUGCCAA | 0.637 |
| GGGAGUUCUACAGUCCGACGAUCAUUAAAACAUGAACCUCAUUUUAGAAAUCGACAGCUAUGGUAUUUUUUUAAUGAUCAGCUUUUCUGUUUAUUGUAAAACUAAGUUAAAAAAUAAAAGGUUAAUGAGAAAUUGGAAUUCUCGGGUGCCAA | 0.988 |
| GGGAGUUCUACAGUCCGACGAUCUAAGGAACUGCCGACUAGGACUGAUGAUGCAUUUUAGCUUUGAGCUUUUGGGGGUUAUUCUACCAACAAACAGUCCAUUGGAAAGAAAACAGUCCCUGGAAUUAACAGAUUGGAAUUCUCGGGUGCCAA | 0.379 |
| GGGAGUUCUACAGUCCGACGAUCAGCAGAGUGGACCAACCGUUCAAUGUUUUACAAGCAAAACAUACACUAAGCAUGGUCUGUAGCUAUUAAAAGCACACAAUCUGAAGGGCUGUAGAUGCACAGUAGUGUUUUGGAAUUCUCGGGUGCCAA | 0.915 |
| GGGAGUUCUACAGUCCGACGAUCAAAUAUGGGGGUCAUGAUUCAACAGAAGUUACAUGGGAUGAAUGGCUCCCAGUUUUCCAGUUUGAGGUUCGUAGAACAAUGUCAAGUGGCAAAAUGAAGUUGGUGGACUCUGGAAUUCUCGGGUGCCAA | 0.342 |
| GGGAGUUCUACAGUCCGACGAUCAAGCGGCCCUGGUUGAAUCUGGCAAUUCUUUUUGCCAAGAUCCCUAGCAGAAGAUUUAGCCAUGUCCUUCCCCUCACUUGUGUGAGUGGCCCCUUCUGAAUCUCUCCAGCUGGAAUUCUCGGGUGCCAA | 0.232 |
| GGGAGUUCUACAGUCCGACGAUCUGUGGAGUUGUUCUUAUCACCUUGCUUCAGAUGUUACUUUGGCGUCCUCCACCAGUUCUCCAUGCGCACCUCUGCAUGUCCGGCACUAGAAUCCCUGAACACUACUUCACUGGAAUUCUCGGGUGCCAA | 1.9 |
| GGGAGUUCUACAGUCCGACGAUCUAAUUUUUGGGUUGGGGAGCCAGCUUGGGGUGGGGAAUUUUCACCUGGGCCUCCGCUCUUUAACUAUAUAAACAUUUAUCUGUAUAUCUAUGUCCCUGUCUGGGGGGCAGUGGAAUUCUCGGGUGCCAA | 0.577 |

Mixed results
| Substance | target | assay | test system | conditions | how to read | measurement | result |
| --- | --- | --- | --- | --- | --- | --- | --- |
| PhoQ, residues 284 288 289 292 302 303 AGGCYF | PhoP, residues 12 14 15 18 19 NHFRA (Escherichia coli, UniProt P23836) | Sort-seq, item: YFP reporter | E. coli | PhoQ-PhoP variant library, added: 10 µM Mg2+ | baseline: high Mg2+ state, higher = stronger signaling | fold induction | 5.13 |

Some of these lines once more (sample 2):
| Substitution | normalised enrichment score |
| --- | --- |
| I4Y | -0.0443 |
| R5N | -0.23 |
| R5S | 0.189 |
